{"data": "Published values gathered from unrelated publications", "USP20 ZnF-UBD domain": "Ubiquitin carboxyl-terminal hydrolase 20, ZnF-UBD domain (USP20, Homo sapiens, UniProt Q9Y2K6)", "note": "Compare with care: the assays were run in different laboratories. Several values in a cell are separate wells, animals, samples, runs or records. ± gives the spread as reported.", "UniProt Q9Y2K6, sequence (whole entry, looked up)": "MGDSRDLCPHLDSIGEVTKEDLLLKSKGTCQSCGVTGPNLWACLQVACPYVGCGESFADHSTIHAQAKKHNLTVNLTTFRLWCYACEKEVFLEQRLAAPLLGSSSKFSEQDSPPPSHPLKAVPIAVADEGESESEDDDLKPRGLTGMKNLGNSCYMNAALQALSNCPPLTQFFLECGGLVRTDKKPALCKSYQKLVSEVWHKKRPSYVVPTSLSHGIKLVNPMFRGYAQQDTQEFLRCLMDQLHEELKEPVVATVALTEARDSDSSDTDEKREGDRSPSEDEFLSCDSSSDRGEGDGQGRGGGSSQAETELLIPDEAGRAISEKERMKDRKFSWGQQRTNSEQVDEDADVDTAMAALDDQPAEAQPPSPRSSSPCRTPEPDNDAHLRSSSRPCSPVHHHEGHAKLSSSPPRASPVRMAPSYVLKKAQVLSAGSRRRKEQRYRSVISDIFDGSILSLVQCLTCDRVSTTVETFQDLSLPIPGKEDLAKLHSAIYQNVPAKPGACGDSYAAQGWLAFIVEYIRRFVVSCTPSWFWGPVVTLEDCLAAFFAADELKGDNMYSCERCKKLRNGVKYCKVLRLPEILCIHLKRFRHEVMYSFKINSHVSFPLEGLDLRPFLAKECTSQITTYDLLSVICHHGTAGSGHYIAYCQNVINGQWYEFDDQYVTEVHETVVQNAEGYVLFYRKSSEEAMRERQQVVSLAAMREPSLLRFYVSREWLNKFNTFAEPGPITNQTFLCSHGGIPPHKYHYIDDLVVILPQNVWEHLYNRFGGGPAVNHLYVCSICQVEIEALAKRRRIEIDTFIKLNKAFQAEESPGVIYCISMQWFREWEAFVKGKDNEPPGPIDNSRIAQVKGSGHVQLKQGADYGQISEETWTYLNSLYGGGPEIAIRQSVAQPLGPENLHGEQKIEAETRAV"}
{"SMILES": "O=C(Nc1ccncc1)c1cc([N+](=O)[O-])ccc1Cl", "tested on": "differentiated THP-1", "setting": "72 h", "scale": "reference: THP-1 CC50 over EC50", "endpoint": "selectivity index", "value": 29}
{"SMILES": "CC(Cc1ccc(O)c(O)c1)C(C)Cc1ccc(O)c(O)c1 (stereo not shown)", "tested on": "HepaRG", "test": "CellTiter-Glo", "setting": "up to 100 µM, 24 h", "endpoint": "cytotoxicity", "value": "< 15%"}
{"SMILES": "CCc1oc2cc(S(=O)(=O)Nc3ccc(S(=O)(=O)Nc4nccs4)cc3)ccc2c1C(=O)c1cc(Br)c(O)c(Br)c1", "tested on": "T47D", "test": "annexin V/PI flow cytometry", "setting": "40 µM, 72 h", "endpoint": "necrotic cells", "value": "2.16 ± 0.87%"}
{"SMILES": "CCC(CC)COC(=O)[C@H](C)N[P@](=O)(OC[C@H]1O[C@@](C#N)(c2ccc3c(N)ncnn23)[C@H](O)[C@@H]1O)Oc1ccccc1", "tested on": "primary human hepatocytes", "test": "spare respiratory capacity, Seahorse OCR", "setting": "4 h", "endpoint": "CC50", "value": "> 30 µM"}
{"SMILES": "CC(=O)Nc1cccc(-n2c(=O)n(C3CC3)c(=O)c3c(Nc4ccc(I)cc4F)n(C)c(=O)c(C)c32)c1", "tested on": "LoVo (KRAS G13D)", "test": "resazurin", "setting": "100.00 nM, 72 h", "scale": "reference: DMSO", "endpoint": "viability fraction", "value": 0.349}
{"SMILES": "Nc1nc(NS(=O)(=O)c2ccccc2)nc(-c2ccccc2)c1-c1nc2ccccc2s1", "tested on": "HEp-2", "test": "cytotoxicity", "setting": "72 h", "endpoint": "maximum non-toxic concentration", "value": "90 µg/mL"}
{"SMILES": "Nc1n[nH]c2c(-c3nc4ccccc4s3)c(N)n(NS(=O)(=O)c3ccccc3)c(=O)c12", "tested on": "HEp-2", "setting": "72 h", "endpoint": "maximum non-toxic concentration", "value": "90 µg/mL"}
{"SMILES": "O=C(O)CCN1C(=O)c2ccccc2S1(=O)=O", "tested on": "USP20 ZnF-UBD domain", "endpoint": "Kd", "value": "> 1000 µM"}
{"SMILES": "COc1ccc(-c2nc(NS(=O)(=O)c3ccccc3)nc(N)c2-c2nc3ccccc3s2)cc1", "tested on": "HEp-2", "test": "cytotoxicity", "setting": "72 h", "endpoint": "maximum non-toxic concentration", "value": "100 µg/mL"}
{"SMILES": "COc1ccc2c(c1NC(=O)OC(C)c1ccc([N+](=O)[O-])s1)CCC=C2c1cc(OC)c(OC)c(OC)c1 (stereo not shown)", "tested on": "A549", "setting": "4 h anoxic", "scale": "reference: oxic IC50 over anoxic IC50", "endpoint": "hypoxic cytotoxicity ratio", "value": 4.8}
{"SMILES": "CSc1c(-c2nc3ccccc3[nH]2)c(N)n(NS(=O)(=O)c2ccccc2)c(=O)c1C#N", "tested on": "HEp-2", "setting": "72 h", "endpoint": "maximum non-toxic concentration", "value": "100 µg/mL"}
{"SMILES": "Cc1ccc(C(=O)CNc2nc(NS(=O)(=O)c3ccccc3)ncc2-c2nc3ccccc3s2)cc1", "tested on": "HEp-2", "test": "cytotoxicity", "setting": "72 h", "endpoint": "maximum non-toxic concentration", "value": "100 µg/mL"}
{"SMILES": "Fc1cccc(N/N=C/c2ccc(-c3cccc(/C=N/Nc4cccc(F)c4)c3)cc2)c1", "tested on": "A549", "setting": "15.5 µg/mL", "endpoint": "cytotoxicity", "value": "not toxic"}
{"SMILES": "OCC1=C(F)[C@@H](n2nnc3c(NO)ncnc32)[C@H](O)[C@@H]1O", "tested on": "BHK-D2-Rluc", "test": "MTT", "setting": "48 (unit not given)", "endpoint": "CC50", "value": "> 100 µM"}
{"SMILES": "O=C(CNc1nc(NS(=O)(=O)c2ccccc2)ncc1-c1nc2ccccc2s1)c1ccc(Cl)cc1", "tested on": "HEp-2", "test": "cytotoxicity", "setting": "72 h", "endpoint": "maximum non-toxic concentration", "value": "110 µg/mL"}
{"SMILES": "C1CCc2c(c(N3CCOCC3)nc3sc4c(N5CCNCC5)nnnc4c23)C1", "tested on": "cryopreserved mouse hepatocytes", "test": "UHPLC-MS peak area", "setting": "1 µM, 20 min", "endpoint": "percentage of drug-related material", "value": "47.9%"}
{"SMILES": "Cc1cc(C)c(CNC(=O)c2cc(Cl)c3c(c2C)O[C@@](C)([C@H]2CC[C@H](N(C)C)CC2)O3)c(=O)[nH]1", "tested on": "Caco-2", "setting": "3 µM", "endpoint": "Papp A to B", "value": "0.405 ± 0.031 ×10⁻⁶ cm/s"}
{"SMILES": "O=c1[nH]cc(F)c(=O)[nH]1", "tested on": "H460", "test": "CCK-8", "setting": "50 µM, 72 h", "scale": "reference: control", "endpoint": "viability", "value": "35.2 ± 2.02%"}
{"SMILES": "Cc1ccc(-c2nc(N)nc(N)c2-c2nc3ccccc3s2)cc1", "tested on": "HEp-2", "test": "cytotoxicity", "setting": "72 h", "endpoint": "maximum non-toxic concentration", "value": "110 µg/mL"}
{"SMILES": "CO[C@@]12[C@H](COC(N)=O)C3=C(C(=O)C(C)=C(N)C3=O)N1C[C@@H]1N[C@@H]12", "tested on": "human peripheral blood lymphocytes", "test": "in vitro micronucleus test", "setting": "0.25 µg/mL, 3 h exposure, -S9, 27 h harvest", "endpoint": "cytostasis", "value": "61%"}
{"SMILES": "CNCCCN1c2ccccc2CCc2ccccc21", "tested on": "HepaRG", "test": "cytotoxicity, CellTiter-Glo", "setting": "24 h", "endpoint": "EC50", "value": "72.9 µM"}
{"SMILES": "C[C@]12CC[C@@H]3c4ccc(O)cc4C[C@@H](CCCCCCCCC[S+]([O-])CCCC(F)(F)C(F)(F)F)[C@H]3[C@@H]1CC[C@@H]2O (stereo partly shown)", "tested on": "T47D", "test": "CCK-8", "setting": "50 nM", "scale": "reference: untreated", "endpoint": "viability", "value": "74% and 77.1% and 80.6%"}
{"SMILES": "CCCCCCCCN(CCC(=O)Nc1ccccc1)C(=O)[C@@H]1CCCN1", "tested on": "Lmna+/+ mouse fibroblasts", "test": "MTT", "setting": "2 µM, 72 h", "scale": "reference: vehicle", "endpoint": "viability", "value": "114 ± 10%"}
{"SMILES": "c1csc(CNc2cc[nH]n2)c1", "tested on": "human peripheral blood lymphocytes", "setting": "225 µg/mL, 20 h", "endpoint": "numerical aberration cells", "value": "0%"}
{"SMILES": "COc1ccc(-c2nc(N)nc(N)c2-c2nc3ccccc3s2)cc1", "tested on": "HEp-2", "test": "cytotoxicity", "setting": "72 h", "endpoint": "maximum non-toxic concentration", "value": "90 µg/mL"}
{"SMILES": "CCCCCCNc1nc(NC2CCN(C)CC2)c2cc(OC)c(OC)cc2n1", "tested on": "differentiated THP-1", "setting": "72 h", "scale": "reference: THP-1 CC50 over EC50", "endpoint": "selectivity index", "value": 0.5}
{"SMILES": "COc1cc(C2=CCCc3c2ccc(OC)c3OCc2ccc([N+](=O)[O-])cc2)cc(OC)c1OC", "tested on": "A549", "setting": "4 h anoxic", "scale": "reference: oxic IC50 over anoxic IC50", "endpoint": "hypoxic cytotoxicity ratio", "value": 1.9}
{"SMILES": "Cc1ncc([N+](=O)[O-])n1CCOC(=O)c1ccccc1", "tested on": "LMH chicken hepatoma cells", "endpoint": "CC50", "value": "~200 µM"}
{"SMILES": "CC[C@]1(O)C[C@H]2CN(CCc3c([nH]c4ccccc34)[C@@](C(=O)OC)(c3cc4c(cc3OC)N(C=O)[C@H]3[C@@](O)(C(=O)OC)[C@H](OC(C)=O)[C@]5(CC)C=CCN6CC[C@]43[C@@H]65)C2)C1", "tested on": "CHP-212 resistant subline R2 (heterozygous USP7 V517F)", "test": "cell viability", "setting": "1111.11 nM", "endpoint": "viability", "value": "15.7% and 12.9% and 11.9%"}
{"SMILES": "Cc1cc(C(=O)NC(C)(C)COc2cccc3c2C(N)=NS(=O)(=O)N3)cc(C)n1", "tested on": "human peripheral blood lymphocytes", "test": "CBPI, preliminary test", "setting": "6 µg/mL, 4 h, with: rat liver S9", "scale": "reference: vehicle control", "endpoint": "cytotoxicity", "value": "12%"}
{"SMILES": "Oc1c(I)cc(Cl)c2cccnc12", "tested on": "LMH chicken hepatoma cells", "endpoint": "CC50", "value": "33.9 µM"}
{"SMILES": "Clc1cccc(COc2ccccc2CNCc2ccccc2)c1", "tested on": "HEK293", "endpoint": "cytotoxic concentration", "value": "> 12.5 µM"}
{"SMILES": "CCCCc1nc2c(N)nc3ccccc3c2n1Cc1ccc(N)cc1", "tested on": "Ramos", "setting": "up to 30 µM", "endpoint": "cytotoxicity", "value": "not toxic"}
{"SMILES": "CC[C@]1(O)C[C@@H]2CN(CCc3c([nH]c4ccccc34)[C@@](C(=O)OC)(c3cc4c(cc3OC)N(C)[C@H]3[C@@](O)(C(=O)OC)[C@H](OC(C)=O)[C@]5(CC)C=CCN6CC[C@]43[C@@H]65)C2)C1", "tested on": "human peripheral blood lymphocytes", "test": "CBPI, micronucleus test", "setting": "7.5 ng/mL, 24 h, without S9", "scale": "reference: vehicle", "endpoint": "cytotoxicity", "value": "11%"}
{"SMILES": "O=C(O)Cc1cccc2cccnc12", "tested on": "USP20 ZnF-UBD domain", "endpoint": "Kd", "value": "> 1000 µM"}
{"SMILES": "COc1cccc(-c2n[nH]c(SCc3ccccn3)n2)c1OC", "tested on": "CHO-WBL", "test": "in vitro micronucleus test", "setting": "100 µg/mL, 3 h", "endpoint": "micronuclei per binucleated cell", "value": 0.014}
{"SMILES": "CCOC(=O)c1cc(C#N)c(=O)n(NS(=O)(=O)c2ccc(C)cc2)c1N", "tested on": "HEp-2", "setting": "72 h", "endpoint": "maximum non-toxic concentration", "value": "90 µg/mL"}
{"SMILES": "CSc1nc(NS(=O)(=O)c2ccccc2)nc(N)c1-c1nc2ccccc2s1", "tested on": "HEp-2", "test": "cytotoxicity", "setting": "72 h", "endpoint": "maximum non-toxic concentration", "value": "90 µg/mL"}
{"SMILES": "N#Cc1cc(C#N)c(=O)n(NS(=O)(=O)c2ccccc2)c1N", "tested on": "HEp-2", "setting": "72 h", "endpoint": "maximum non-toxic concentration", "value": "100 µg/mL"}
{"SMILES": "COc1cccc2c1C(=O)c1c(O)c3c(c(O)c1C2=O)C[C@@](O)(C(=O)CO)C[C@@H]3O[C@H]1C[C@H](N)[C@H](O)[C@H](C)O1", "tested on": "1321N1 cells", "test": "MTT", "setting": "10 µM, 24 h", "scale": "reference: untreated", "endpoint": "viability", "value": "60 ± 0.64%"}
{"note": "A few entries again:"}
{"SMILES": "N#Cc1cc(C#N)c(=O)n(NS(=O)(=O)c2ccccc2)c1N", "tested on": "HEp-2", "setting": "72 h", "endpoint": "maximum non-toxic concentration", "value": "100 µg/mL"}
{"SMILES": "CSc1c(-c2nc3ccccc3[nH]2)c(N)n(NS(=O)(=O)c2ccccc2)c(=O)c1C#N", "tested on": "HEp-2", "setting": "72 h", "endpoint": "maximum non-toxic concentration", "value": "100 µg/mL"}
{"SMILES": "CC(Cc1ccc(O)c(O)c1)C(C)Cc1ccc(O)c(O)c1 (stereo not shown)", "tested on": "HepaRG", "test": "CellTiter-Glo", "setting": "up to 100 µM, 24 h", "endpoint": "cytotoxicity", "value": "< 15%"}
{"SMILES": "Cc1ccc(-c2nc(N)nc(N)c2-c2nc3ccccc3s2)cc1", "tested on": "HEp-2", "test": "cytotoxicity", "setting": "72 h", "endpoint": "maximum non-toxic concentration", "value": "110 µg/mL"}
{"SMILES": "c1csc(CNc2cc[nH]n2)c1", "tested on": "human peripheral blood lymphocytes", "setting": "225 µg/mL, 20 h", "endpoint": "numerical aberration cells", "value": "0%"}
{"SMILES": "Cc1cc(C(=O)NC(C)(C)COc2cccc3c2C(N)=NS(=O)(=O)N3)cc(C)n1", "tested on": "human peripheral blood lymphocytes", "test": "CBPI, preliminary test", "setting": "6 µg/mL, 4 h, with: rat liver S9", "scale": "reference: vehicle control", "endpoint": "cytotoxicity", "value": "12%"}
